Assay results of several laboratories.
Every numbered part comes from another study and shows a few of its results, in no order. Values joined by “and” are separate records of one study, mostly repeats; a detail may differ.
UniProt Q05655, sequence (whole entry, looked up): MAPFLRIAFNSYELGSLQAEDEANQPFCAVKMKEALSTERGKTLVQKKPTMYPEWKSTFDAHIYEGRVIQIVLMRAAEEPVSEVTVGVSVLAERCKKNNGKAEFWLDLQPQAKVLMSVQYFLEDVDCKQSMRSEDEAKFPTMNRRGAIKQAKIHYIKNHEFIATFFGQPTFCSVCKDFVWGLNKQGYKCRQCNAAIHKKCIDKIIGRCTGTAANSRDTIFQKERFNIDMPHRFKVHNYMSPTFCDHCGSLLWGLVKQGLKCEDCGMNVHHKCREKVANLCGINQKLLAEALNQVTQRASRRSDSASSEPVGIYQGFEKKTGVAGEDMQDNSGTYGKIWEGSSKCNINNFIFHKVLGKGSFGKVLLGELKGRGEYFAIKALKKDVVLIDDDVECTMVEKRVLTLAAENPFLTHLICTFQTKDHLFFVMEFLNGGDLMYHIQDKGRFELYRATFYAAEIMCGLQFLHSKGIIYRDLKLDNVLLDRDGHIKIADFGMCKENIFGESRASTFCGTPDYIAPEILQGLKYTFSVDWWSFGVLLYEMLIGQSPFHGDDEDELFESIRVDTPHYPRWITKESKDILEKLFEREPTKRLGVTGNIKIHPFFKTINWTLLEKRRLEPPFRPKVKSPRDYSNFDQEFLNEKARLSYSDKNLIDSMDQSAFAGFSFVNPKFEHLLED
UniProt O76039, sequence (whole entry, looked up): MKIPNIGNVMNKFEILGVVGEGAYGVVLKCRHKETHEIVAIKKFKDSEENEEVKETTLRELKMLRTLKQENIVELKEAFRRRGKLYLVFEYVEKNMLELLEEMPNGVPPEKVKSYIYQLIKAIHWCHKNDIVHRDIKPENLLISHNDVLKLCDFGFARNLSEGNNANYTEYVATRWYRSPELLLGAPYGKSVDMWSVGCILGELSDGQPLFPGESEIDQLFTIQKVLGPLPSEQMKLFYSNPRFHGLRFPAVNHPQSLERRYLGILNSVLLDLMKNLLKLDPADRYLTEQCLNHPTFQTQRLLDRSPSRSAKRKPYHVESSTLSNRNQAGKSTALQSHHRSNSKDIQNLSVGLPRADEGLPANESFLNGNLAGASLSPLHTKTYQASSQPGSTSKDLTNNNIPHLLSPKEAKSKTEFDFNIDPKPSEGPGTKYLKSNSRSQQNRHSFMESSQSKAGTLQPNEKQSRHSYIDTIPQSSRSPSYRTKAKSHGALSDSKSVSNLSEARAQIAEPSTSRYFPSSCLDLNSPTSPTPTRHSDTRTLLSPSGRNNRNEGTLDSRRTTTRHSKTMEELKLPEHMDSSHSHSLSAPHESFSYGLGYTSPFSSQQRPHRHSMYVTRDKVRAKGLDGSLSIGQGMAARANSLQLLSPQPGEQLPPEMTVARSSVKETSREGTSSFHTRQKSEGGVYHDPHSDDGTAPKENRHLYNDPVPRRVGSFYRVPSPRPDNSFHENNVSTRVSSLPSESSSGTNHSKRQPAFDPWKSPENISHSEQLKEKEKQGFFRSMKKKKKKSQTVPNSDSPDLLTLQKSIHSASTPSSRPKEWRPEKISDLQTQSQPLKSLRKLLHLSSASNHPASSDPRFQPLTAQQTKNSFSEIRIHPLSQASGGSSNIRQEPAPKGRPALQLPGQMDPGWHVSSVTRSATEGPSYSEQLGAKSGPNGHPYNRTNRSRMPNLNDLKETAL
UniProt Q9UBE8, sequence (whole entry, looked up): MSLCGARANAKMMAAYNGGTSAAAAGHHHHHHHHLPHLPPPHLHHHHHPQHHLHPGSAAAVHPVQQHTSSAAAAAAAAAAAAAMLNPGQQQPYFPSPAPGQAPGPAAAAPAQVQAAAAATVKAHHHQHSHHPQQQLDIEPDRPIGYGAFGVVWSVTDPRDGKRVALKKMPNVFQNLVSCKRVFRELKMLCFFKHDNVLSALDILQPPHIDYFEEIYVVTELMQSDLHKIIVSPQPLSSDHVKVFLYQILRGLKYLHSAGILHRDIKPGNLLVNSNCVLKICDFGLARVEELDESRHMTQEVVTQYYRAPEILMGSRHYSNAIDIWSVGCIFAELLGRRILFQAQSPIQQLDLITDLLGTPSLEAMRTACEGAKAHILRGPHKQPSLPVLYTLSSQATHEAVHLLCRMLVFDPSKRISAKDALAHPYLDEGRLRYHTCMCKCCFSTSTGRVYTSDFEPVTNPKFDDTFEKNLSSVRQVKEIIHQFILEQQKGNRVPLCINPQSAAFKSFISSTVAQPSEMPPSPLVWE
UniProt P08581, sequence (whole entry, looked up): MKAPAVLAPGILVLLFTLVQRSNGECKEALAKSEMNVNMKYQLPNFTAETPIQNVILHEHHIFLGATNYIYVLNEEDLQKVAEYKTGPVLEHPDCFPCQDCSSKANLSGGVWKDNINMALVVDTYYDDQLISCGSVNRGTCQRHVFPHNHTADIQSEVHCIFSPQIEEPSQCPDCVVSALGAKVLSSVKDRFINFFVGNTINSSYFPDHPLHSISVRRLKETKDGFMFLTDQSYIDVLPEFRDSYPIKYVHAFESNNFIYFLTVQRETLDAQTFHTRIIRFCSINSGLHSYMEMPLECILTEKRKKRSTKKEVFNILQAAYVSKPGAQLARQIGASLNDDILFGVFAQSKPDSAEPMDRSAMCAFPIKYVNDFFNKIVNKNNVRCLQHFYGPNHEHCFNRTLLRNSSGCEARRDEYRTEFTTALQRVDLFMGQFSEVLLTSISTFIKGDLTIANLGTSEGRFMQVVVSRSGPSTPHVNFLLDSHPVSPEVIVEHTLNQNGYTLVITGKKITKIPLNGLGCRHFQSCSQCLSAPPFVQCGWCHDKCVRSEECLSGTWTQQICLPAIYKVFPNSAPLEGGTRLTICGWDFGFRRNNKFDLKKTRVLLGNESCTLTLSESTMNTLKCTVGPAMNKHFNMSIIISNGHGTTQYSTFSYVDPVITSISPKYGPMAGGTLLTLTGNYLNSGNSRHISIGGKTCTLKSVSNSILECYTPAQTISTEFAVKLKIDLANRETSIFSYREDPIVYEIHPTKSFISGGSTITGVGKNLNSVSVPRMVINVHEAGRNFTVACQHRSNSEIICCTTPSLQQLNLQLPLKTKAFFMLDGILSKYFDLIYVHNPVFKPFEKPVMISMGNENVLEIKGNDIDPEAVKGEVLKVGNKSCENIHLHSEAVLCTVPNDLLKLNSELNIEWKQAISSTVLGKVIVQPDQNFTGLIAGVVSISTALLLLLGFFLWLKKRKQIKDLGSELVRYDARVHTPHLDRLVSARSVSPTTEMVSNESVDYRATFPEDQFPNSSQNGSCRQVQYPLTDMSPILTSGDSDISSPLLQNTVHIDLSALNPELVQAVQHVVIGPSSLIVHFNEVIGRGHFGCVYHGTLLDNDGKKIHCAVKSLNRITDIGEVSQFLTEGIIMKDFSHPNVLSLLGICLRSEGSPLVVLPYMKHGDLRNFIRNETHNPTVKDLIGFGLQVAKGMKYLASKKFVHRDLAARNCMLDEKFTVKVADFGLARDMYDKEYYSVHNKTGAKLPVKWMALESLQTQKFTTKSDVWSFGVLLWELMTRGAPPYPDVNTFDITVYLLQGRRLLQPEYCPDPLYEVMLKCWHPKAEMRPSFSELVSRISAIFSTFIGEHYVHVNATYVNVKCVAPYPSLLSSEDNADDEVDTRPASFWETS
UniProt Q15349, sequence (whole entry, looked up): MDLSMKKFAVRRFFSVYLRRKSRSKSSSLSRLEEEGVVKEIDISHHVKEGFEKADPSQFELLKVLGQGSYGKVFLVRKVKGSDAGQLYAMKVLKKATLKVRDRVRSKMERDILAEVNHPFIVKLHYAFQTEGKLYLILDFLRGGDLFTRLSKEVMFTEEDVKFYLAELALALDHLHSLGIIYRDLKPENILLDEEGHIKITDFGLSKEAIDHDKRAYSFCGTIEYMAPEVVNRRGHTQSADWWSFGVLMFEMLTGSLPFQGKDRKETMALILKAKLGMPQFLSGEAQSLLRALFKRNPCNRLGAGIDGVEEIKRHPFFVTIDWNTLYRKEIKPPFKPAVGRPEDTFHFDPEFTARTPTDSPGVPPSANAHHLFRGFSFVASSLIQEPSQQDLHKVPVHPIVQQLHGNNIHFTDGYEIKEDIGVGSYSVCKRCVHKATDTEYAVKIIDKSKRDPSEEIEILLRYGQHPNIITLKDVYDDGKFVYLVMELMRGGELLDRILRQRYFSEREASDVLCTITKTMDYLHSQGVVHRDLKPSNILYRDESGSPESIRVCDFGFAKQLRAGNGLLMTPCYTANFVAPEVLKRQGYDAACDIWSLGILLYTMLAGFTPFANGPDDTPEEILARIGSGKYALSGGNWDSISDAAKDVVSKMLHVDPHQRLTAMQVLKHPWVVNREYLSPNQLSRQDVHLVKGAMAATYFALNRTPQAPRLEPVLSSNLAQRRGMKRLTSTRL
UniProt Q13976, sequence (whole entry, looked up): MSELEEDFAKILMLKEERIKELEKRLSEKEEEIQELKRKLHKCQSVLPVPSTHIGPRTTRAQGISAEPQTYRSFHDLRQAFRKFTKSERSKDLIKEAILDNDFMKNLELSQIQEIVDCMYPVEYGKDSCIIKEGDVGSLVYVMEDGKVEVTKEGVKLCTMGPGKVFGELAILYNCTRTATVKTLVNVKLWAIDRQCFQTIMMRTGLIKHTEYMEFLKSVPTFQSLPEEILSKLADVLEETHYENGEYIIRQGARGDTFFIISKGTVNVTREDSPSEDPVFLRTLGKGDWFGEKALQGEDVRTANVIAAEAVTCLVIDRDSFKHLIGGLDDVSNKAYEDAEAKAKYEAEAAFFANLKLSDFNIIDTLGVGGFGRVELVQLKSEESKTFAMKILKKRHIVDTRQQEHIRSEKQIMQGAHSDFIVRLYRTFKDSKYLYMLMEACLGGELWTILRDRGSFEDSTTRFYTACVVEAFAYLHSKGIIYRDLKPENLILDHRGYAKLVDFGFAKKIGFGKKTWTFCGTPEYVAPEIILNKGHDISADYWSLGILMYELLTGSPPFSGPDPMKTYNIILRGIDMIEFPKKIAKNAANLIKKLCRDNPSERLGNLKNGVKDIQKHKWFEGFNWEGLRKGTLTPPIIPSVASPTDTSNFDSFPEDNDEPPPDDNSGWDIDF

Block 1
Cell line: mouse MPNST tumor cells
Method: high-content immunofluorescence imaging
Item: nuclear SOX9
Concentration: 10 µM
Time: 12 h
Notes: mean of 2 replicates
Reference: DMSO control
Reading: higher = more nuclear SOX9
| SMILES | nuclear SOX9 intensity |
| --- | --- |
| Cc1cc(C=C2SC(=O)N(c3ccccc3)C2=O)c(C)n1-c1cccnc1 | 108 % of DMSO |
| Nc1nc(OCC2CCCCC2)c2[nH]cnc2n1 | 87.6 % of DMSO |
| CCC1=C(C)CN(C(=O)NCCc2ccc(S(=O)(=O)NC(=O)N[C@H]3CC[C@H](C)CC3)cc2)C1=O | 98 % of DMSO |
| CC=CC(=O)N(CC)c1ccccc1C | 90.3 % of DMSO |
| Cc1cn2cc(CC(=O)N3CCC4(CC3)CN(Cc3ccc(-n5nccn5)cc3Cl)C4)nc2s1 | 138 % of DMSO |
| OCCC#Cc1nc(-c2ccc(F)cc2)c(-c2ccncc2)n1CCCc1ccccc1 | 98 % of DMSO |
| O=C1N(c2ccccc2)c2ccccc2C1(Cc1ccncc1)Cc1ccncc1 | 92.4 % of DMSO |
| O=C(O)[C@@H]1[C@H](C(=O)O)NCCN1C(=O)c1ccc2c(ccc3ccccc32)c1.O=C(O)[C@H]1NCCN(C(=O)c2ccc3c(ccc4ccccc43)c2)[C@H]1C(=O)O | 94.8 % of DMSO |
| CCCn1c(=O)[nH]c2nc(-c3ccc(S(=O)(=O)O)cc3)[nH]c2c1=O | 104 % of DMSO |
| CCCc1nn(C)c2c(=O)[nH]c(-c3cc(S(=O)(=O)N4CCN(C)CC4)ccc3OCC)nc12 | 108 % of DMSO and 94.3 % of DMSO and 94.9 % of DMSO |
| COCC(=O)Nc1c(I)c(C(=O)NCC(O)CO)c(I)c(C(=O)N(C)CC(O)CO)c1I (centres unmarked) | 99.4 % of DMSO |
| Cn1cc(CCn2cnc(-c3cnn(C)c3)c2-c2ccc(C#N)cc2)cn1 | 102 % of DMSO |
| COC(=O)C1=C(C)NC(C)=C(C(=O)OCCSc2ccccc2)C1C (centres unmarked) | 124 % of DMSO |
| O=C(NCCO[N+](=O)[O-])c1cccnc1 | 98.1 % of DMSO |
| Oc1ccc(OCc2ccccc2)cc1 | 125 % of DMSO |

Block 2
Cell line: Huh-7
Concentration: 10 µM
Time: 24 h
| SMILES | viability [%] |
| --- | --- |
| O=C(O)c1cc(O)c2c(c1)[C@H]([C@H]1c3cc(C(=O)O)cc(O)c3C(=O)c3c(O[C@@H]4O[C@H](CO)[C@@H](O)[C@H](O)[C@H]4O)cccc31)c1cccc(O[C@@H]3O[C@H](CO)[C@@H](O)[C@H](O)[C@H]3O)c1C2=O | 99.9 |
| CN(C)[C@@H]1C(O)=C(C(=O)NCN2CCCC2)C(=O)[C@@]2(O)C(O)=C3C(=O)c4c(O)cccc4[C@@](C)(O)[C@H]3C[C@@H]12 | 98 |
| Cc1onc(-c2ccccc2Cl)c1C(=O)N[C@@H]1C(=O)N2[C@@H]1SC(C)(C)[C@@H]2C(=O)O | 105 |
| OCc1cccnc1 | 102 |
| CC(C(=O)O)c1ccc(N2Cc3ccccc3C2=O)cc1 (centres unmarked) | 101 |
| COc1ccc(C(Cl)=C(c2ccc(OC)cc2)c2ccc(OC)cc2)cc1 | 97.8 |
| CCN1CCCC1CNC(=O)c1cc(S(N)(=O)=O)ccc1OC (centres unmarked) | 95.2 |
| CC(C)c1nc(N(C)S(C)(=O)=O)nc(-c2ccc(F)cc2)c1/C=C/[C@@H](O)C[C@@H](O)CC(=O)O | 95.5 |
| Cn1nnnc1SCC1=C(C(=O)O)N2C(=O)[C@@H](NC(=O)[C@H](OC=O)c3ccccc3)[C@H]2SC1 | 103 |
| O=C(O)c1cc(O)c(O)c(O)c1 | 102 |
| Cc1cc(=O)[nH]c(=S)[nH]1 | 95.1 |
| CN1CCCN=C1COC(=O)C(O)(c1ccccc1)C1CCCCC1 (centres unmarked) | 101 |
| CC#C[C@]1(O)CC[C@H]2[C@@H]3CCC4=CC(=O)CCC4=C3[C@@H](c3ccc(N(C)C)cc3)C[C@@]21C | 101 |

Block 3
SMILES: COc1cccc(CNC(=O)c2nc3scc(COCc4ccc(C(=O)O)cc4)c3c(=O)[nH]2)c1
Observed: cell-free assay
Method: competition with immobilised ligand
Concentration: 1 µM
| target | remaining binding [%] |
| --- | --- |
| FGFR2 (Homo sapiens, UniProt P21802) | 100 |
| SNRK (Homo sapiens, UniProt Q9NRH2) | 89.2 |
| DCLK3 (Homo sapiens, UniProt Q9C098) | 100 |
| MET (Homo sapiens, UniProt P08581) | 100 |
| ERBB3 (Homo sapiens, UniProt P21860) | 89.4 |
| TNIK (Homo sapiens, UniProt Q9UKE5) | 100 |
| RAF1 (Homo sapiens, UniProt P04049) | 85.6 |
| PRKG1 (Homo sapiens, UniProt Q13976) | 100 |
| FGFR4 (Homo sapiens, UniProt P22455) | 91.4 |
| CSNK1A1 (Homo sapiens, UniProt P48729) | 82.1 |
| NLK (Homo sapiens, UniProt Q9UBE8) | 80.3 |
| MAP3K14 (Homo sapiens, UniProt Q99558) | 100 |
| HIPK1 (Homo sapiens, UniProt Q86Z02) | 88.4 |
| PIK3CD (Homo sapiens, UniProt O00329) | 85.7 |
| Ribosomal protein S6 kinase alpha-2, C-terminal kinase domain (RPS6KA2, Homo sapiens, UniProt Q15349) | 100 |
| CAMK2A (Homo sapiens, UniProt Q9UQM7) | 92.5 |
| CDKL5 (Homo sapiens, UniProt O76039) | 89.5 |
| TXK (Homo sapiens, UniProt P42681) | 87.7 |
| PRKCD (Homo sapiens, UniProt Q05655) | 87.7 |

Block 4
Target: Mitogen-activated protein kinase kinase kinase kinase 2 (MAP4K2, Homo sapiens, UniProt Q12851)
Observed: enzyme activity
Mode: inhibitor
Concentration: 0.5 µM
Reference: control
Construct (Q12851 1-820): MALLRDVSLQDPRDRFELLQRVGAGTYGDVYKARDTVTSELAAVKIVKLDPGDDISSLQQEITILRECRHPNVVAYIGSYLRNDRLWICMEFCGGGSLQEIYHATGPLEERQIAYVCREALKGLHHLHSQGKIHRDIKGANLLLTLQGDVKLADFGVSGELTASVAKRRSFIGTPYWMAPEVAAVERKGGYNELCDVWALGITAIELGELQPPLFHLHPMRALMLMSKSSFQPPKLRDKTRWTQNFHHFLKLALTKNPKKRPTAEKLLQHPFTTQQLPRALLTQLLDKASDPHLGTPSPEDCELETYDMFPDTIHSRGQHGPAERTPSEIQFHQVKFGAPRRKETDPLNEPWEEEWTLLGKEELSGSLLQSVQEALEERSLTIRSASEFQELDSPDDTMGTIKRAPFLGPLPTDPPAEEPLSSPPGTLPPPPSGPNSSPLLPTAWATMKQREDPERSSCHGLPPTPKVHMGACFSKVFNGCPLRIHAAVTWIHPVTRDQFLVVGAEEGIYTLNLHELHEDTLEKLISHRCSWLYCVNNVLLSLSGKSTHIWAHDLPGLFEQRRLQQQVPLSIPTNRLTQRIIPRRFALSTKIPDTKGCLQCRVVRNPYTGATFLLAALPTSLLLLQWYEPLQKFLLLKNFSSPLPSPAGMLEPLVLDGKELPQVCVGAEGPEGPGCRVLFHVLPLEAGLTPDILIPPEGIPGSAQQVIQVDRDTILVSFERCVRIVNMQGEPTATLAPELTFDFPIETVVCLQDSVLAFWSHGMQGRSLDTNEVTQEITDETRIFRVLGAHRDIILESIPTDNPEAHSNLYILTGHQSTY
| SMILES | remaining activity |
| --- | --- |
| Nc1cccc(-c2cc3c(Oc4cccc(O)c4)ncnc3[nH]2)c1 | 55.5% |
| Cc1cc2ncc(-c3ccccc3)nc2cc1C | 113% |
| O=C1c2ccccc2-c2n[nH]c3cccc1c23 | 42.8% |
| COc1cc2ncnc(Nc3ccc(O)c(Br)c3)c2cc1OC | 101% |
| COc1cc2c(cc1OC)-c1[nH]nc(Nc3cccc(F)c3)c1C2 | 103% |
| O=C1C(Cl)=C(N2C(=O)CCC2=O)C(=O)c2ccccc21 | 89.6% |
| CCOc1nc(NC(=O)Cc2cc(OC)ccc2OC)cc(N)c1C#N | 83.6% |
| O=C(NC(NC(=S)Nc1ccc(F)c([N+](=O)[O-])c1)C(Cl)(Cl)Cl)C(c1ccccc1)c1ccccc1 (centres unmarked) | 111% |
| O=C(Nc1cccc(Nc2nccc(Nc3cccc(C(F)(F)F)c3)n2)c1)C1CC1 | 112% |
| CCN(CC)CCNC(=O)c1c(C)[nH]c(/C=C2\C(=O)Nc3ccc(F)cc32)c1C | 34.4% |
| Cc1cn(-c2cc(NC(=O)c3ccc(C)c(Nc4nccc(-c5cccnc5)n4)c3)cc(C(F)(F)F)c2)cn1 | 103% |
| N#C/C(=C\c1ccc(O)c(O)c1)C(=O)NCc1ccccc1 | 103% |
| c1ccc(-c2[nH]ncc2-c2ccnc3ccccc23)nc1 | 103% |
| Cn1nc2c3c(cccc31)C(=O)c1ccccc1-2 | 75.4% |
| Ic1cccc(CSc2nnc(-c3ccncc3)o2)c1 | 112% |
| N#Cc1c(NC(=O)c2cccc3ccccc23)sc2c1CCCC2 | 86.1% |
| C[C@@H]1CCN(C(=O)CC#N)C[C@@H]1N(C)c1ncnc2[nH]ccc12 | 102% |
| CN(C)C[C@H]1CCn2c(c(C3=C(c4cn(C)c5ccccc45)C(=O)NC3=O)c3ccccc32)C1 | 99% |

A few entries again (block 3):
| target | remaining binding [%] |
| --- | --- |
| SNRK (Homo sapiens, UniProt Q9NRH2) | 89.2 |
| DCLK3 (Homo sapiens, UniProt Q9C098) | 100 |
| MET (Homo sapiens, UniProt P08581) | 100 |
| ERBB3 (Homo sapiens, UniProt P21860) | 89.4 |
| TNIK (Homo sapiens, UniProt Q9UKE5) | 100 |
| RAF1 (Homo sapiens, UniProt P04049) | 85.6 |
| PRKG1 (Homo sapiens, UniProt Q13976) | 100 |
| FGFR4 (Homo sapiens, UniProt P22455) | 91.4 |
| CSNK1A1 (Homo sapiens, UniProt P48729) | 82.1 |
